Assay results from different studies.
± gives the spread as reported.
NR1I2: Nuclear receptor subfamily 1 group I member 2 (NR1I2, Homo sapiens, UniProt O75469)
Chain of UniProt O75469 (whole entry, looked up): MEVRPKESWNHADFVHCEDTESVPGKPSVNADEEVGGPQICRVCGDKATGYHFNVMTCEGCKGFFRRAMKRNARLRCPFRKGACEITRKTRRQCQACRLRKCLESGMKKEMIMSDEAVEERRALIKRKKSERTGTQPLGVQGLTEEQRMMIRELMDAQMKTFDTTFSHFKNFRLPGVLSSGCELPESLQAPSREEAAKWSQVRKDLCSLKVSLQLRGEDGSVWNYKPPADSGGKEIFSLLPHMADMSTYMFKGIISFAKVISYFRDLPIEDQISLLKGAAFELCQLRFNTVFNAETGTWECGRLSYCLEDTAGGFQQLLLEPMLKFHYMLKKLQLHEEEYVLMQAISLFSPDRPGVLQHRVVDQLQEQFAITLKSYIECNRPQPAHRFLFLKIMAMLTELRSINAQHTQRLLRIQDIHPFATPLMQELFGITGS
CYP2D6: Cytochrome P450 2D6 (CYP2D6, Homo sapiens, UniProt P10635)
Chain of UniProt P10635 (whole entry, looked up): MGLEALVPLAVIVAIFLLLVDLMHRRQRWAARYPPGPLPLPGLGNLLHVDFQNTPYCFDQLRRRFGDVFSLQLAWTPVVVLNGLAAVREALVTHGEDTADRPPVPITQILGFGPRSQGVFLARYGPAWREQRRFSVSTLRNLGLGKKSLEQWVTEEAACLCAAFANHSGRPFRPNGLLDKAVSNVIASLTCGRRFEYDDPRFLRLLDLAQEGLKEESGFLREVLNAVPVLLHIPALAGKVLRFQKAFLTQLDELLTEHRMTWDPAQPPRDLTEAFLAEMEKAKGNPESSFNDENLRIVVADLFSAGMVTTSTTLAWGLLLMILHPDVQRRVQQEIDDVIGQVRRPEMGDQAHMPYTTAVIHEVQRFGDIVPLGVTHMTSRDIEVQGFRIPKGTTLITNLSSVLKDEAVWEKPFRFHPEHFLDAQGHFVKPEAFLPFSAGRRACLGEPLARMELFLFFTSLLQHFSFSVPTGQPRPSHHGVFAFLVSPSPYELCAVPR
SLCO1B3 S112A: Solute carrier organic anion transporter family member 1B3 (SLCO1B3, Homo sapiens, UniProt Q9NPD5, S112A)
Chain of UniProt Q9NPD5 (whole entry, unmodified, looked up): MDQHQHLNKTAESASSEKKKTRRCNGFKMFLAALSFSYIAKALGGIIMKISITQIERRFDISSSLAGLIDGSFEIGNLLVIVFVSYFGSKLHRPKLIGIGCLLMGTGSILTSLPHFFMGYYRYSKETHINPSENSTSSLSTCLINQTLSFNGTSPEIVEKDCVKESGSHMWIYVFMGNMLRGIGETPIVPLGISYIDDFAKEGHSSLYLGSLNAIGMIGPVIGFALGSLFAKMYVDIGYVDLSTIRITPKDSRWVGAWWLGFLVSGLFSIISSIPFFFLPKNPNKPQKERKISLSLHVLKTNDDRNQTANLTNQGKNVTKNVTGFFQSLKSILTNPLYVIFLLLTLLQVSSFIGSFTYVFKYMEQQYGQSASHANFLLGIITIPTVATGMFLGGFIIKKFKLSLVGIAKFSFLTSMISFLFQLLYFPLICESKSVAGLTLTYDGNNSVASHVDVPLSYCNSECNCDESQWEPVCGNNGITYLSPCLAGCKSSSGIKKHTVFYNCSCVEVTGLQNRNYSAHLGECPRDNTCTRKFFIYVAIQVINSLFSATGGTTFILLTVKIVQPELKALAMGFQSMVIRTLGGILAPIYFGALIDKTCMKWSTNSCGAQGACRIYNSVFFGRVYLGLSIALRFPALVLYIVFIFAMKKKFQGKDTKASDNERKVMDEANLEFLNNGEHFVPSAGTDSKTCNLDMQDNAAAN
Chain of UniProt P11712 (whole entry, looked up): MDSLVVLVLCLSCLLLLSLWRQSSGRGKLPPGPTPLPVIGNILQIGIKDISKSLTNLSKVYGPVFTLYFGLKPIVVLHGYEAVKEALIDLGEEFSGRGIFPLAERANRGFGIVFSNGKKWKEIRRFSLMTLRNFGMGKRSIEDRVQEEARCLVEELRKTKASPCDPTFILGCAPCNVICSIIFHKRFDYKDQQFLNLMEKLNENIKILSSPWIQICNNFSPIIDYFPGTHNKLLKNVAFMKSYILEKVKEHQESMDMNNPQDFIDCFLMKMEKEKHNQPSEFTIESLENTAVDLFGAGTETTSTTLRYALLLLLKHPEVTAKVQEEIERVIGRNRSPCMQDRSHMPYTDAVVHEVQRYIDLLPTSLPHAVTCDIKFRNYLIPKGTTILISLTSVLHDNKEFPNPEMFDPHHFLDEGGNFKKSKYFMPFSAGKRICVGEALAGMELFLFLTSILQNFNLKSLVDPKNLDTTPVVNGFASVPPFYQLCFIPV
Chain of UniProt P19224 (whole entry, looked up): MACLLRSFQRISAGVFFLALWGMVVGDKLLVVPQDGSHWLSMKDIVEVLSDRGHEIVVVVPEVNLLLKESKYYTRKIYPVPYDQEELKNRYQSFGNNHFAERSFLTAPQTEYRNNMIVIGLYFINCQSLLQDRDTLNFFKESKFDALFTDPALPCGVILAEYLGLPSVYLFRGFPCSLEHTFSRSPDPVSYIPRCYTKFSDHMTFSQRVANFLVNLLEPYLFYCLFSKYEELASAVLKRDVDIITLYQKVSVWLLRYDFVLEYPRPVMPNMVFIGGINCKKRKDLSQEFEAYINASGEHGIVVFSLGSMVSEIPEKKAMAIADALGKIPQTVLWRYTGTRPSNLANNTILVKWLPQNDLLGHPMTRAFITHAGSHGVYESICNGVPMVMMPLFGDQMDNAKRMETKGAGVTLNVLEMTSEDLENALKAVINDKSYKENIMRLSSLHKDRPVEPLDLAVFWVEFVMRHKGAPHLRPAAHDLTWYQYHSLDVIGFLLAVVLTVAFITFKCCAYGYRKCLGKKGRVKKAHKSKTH
Chain of UniProt P08684 (whole entry, looked up): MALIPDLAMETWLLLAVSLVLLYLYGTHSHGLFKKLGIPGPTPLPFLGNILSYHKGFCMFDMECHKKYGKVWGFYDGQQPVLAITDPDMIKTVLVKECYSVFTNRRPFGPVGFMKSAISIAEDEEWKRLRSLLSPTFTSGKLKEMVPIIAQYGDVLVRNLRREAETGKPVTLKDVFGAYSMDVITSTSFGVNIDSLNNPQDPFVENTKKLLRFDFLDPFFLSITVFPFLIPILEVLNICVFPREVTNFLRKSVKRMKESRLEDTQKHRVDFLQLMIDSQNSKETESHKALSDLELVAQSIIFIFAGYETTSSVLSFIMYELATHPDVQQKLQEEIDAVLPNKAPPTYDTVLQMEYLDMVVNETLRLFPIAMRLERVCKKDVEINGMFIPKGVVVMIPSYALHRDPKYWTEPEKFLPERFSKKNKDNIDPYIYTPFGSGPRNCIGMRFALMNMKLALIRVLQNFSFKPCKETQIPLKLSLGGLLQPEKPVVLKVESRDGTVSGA
Chain of UniProt Q9NSA0 (whole entry, looked up): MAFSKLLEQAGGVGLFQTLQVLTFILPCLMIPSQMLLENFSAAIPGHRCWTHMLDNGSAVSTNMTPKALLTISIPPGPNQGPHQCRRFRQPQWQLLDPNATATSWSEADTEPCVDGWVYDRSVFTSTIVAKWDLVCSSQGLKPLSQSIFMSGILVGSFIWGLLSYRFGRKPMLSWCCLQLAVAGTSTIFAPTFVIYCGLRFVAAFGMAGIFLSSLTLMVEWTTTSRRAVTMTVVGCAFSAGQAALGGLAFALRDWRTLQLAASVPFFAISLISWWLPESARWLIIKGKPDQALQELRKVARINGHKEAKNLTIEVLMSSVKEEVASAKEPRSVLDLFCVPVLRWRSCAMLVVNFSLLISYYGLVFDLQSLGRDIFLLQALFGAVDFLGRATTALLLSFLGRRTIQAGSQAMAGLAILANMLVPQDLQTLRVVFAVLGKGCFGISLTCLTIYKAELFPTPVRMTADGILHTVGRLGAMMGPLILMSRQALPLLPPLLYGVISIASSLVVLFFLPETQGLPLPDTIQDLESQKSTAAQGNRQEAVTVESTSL
Chain of UniProt P15538 (whole entry, unmodified, looked up): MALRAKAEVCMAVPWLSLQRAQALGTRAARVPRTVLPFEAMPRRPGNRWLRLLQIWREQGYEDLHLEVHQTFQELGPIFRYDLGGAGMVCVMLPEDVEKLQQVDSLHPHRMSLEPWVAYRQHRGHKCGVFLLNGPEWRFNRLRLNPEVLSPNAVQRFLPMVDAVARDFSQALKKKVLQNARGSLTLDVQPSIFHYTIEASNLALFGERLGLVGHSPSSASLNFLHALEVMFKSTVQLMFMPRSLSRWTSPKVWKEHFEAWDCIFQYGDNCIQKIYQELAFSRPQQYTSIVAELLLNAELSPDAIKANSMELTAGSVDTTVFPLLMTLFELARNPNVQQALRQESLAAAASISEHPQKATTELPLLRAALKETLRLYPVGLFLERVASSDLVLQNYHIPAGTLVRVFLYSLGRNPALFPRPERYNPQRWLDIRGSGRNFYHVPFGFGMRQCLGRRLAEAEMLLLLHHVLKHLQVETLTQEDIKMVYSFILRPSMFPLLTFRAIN
Chain of UniProt Q8VCR2 (whole entry, looked up): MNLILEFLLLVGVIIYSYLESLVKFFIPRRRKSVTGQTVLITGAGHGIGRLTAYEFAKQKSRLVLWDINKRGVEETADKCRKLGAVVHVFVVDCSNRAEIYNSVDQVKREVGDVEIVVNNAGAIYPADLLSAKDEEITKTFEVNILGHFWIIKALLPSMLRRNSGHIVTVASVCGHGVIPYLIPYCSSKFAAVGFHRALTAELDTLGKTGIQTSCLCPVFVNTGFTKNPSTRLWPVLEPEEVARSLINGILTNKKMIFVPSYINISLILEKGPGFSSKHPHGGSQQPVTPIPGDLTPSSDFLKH

CC(C)Nc1ccnc(Nc2cccc(-c3ccccc3)c2)n1 — Papp (B-A) (P-glycoprotein (human MDR1); MDR1-MDCKII; 10 µM, 1 h, pH 7.4): 8.86 ± 2.17 nm/s
COC(=O)c1cn(C)c2ccc(-c3cccnc3)cc12 — activation (NR1I2; reporter gene, agonist, Gal4 hybrid reporter; HEK293T transiently transfected; 10 µM, 16 h, 0.1% DMSO; baseline: vehicle): 1.12 fold
N#C[C@H](C[C@@H]1CCCNC1=O)NC(=O)[C@H](CC1CC1)NC(=O)c1cc2cccc(Cl)c2[nH]1 — half-life (CYP2D6; NADPH metabolic stability; 2 µM, pH 7.4): > 0.167 h
CCCCc1oc2ccc(NS(C)(=O)=O)cc2c1C(=O)c1ccc(OCCCN(CCCC)CCCC)cc1 — kinact (Cytochrome P450 2J2 (CYP2J2, Homo sapiens, UniProt P51589); inactivator; together with: astemizole substrate): 0.02 ± 0.0018 min⁻¹
C[S+]([O-])CCCCN=C=S (stereo not shown) — inhibition (CYP2D6; enzyme activity; human liver microsomes; concentration not given, 10 min, together with: dextromethorphan): 68%
CCCCCCCCC(=O)c1cc(O)c(O)c(O)c1 — activation (NR1I2; reporter gene, agonist, Gal4 hybrid reporter; HEK293T transiently transfected; 10 µM, 16 h, 0.1% DMSO; baseline: vehicle): 3.6 fold
CNC(=O)c1cc(Oc2ccc(NC(=O)Nc3ccc(Cl)c(C(F)(F)F)c3)cc2)ccn1 — Vmax (SLCO1B3 S112A; uptake, substrate; HEK293-A stably expressing SLCO1B3; 2 min): 113 ± 47.4 pmol/mg protein/min
C=CC(=O)Nc1cc(Nc2nccc(-c3cn(C)c4ccccc34)n2)c(OCC(F)(F)F)nc1N(C)CCNC — intrinsic clearance (CYP2D6; substrate depletion; recombinant human CYP; 1 µM): 0.3 µL/min/pmol
c1ccc(-c2cccc(Nc3nccc(NC4CCCCC4)n3)c2)nc1 — efflux ratio (P-glycoprotein (human MDR1); MDR1-MDCKII; 10 µM, 1 h, pH 7.4; baseline: B-A over A-B): 1.18
CC(C)CCCCC(=O)N[C@@H](CCN)C(=O)N[C@H](C(=O)N[C@@H](CCN)C(=O)N[C@H]1CCNC(=O)[C@H]([C@@H](C)O)NC(=O)[C@H](CCN)NC(=O)[C@H](CCN)NC(=O)[C@H](CC(C)C)NC(=O)[C@@H](Cc2ccccc2)NC(=O)[C@H](CCN)NC1=O)[C@@H](C)O — fu (plasma proteins; equilibrium dialysis; human, mild renal insufficiency, plasma; intravenous, 0.75 mg/kg, 4 h, 37 °C): 10.9%
CC(C)Nc1ccnc(Nc2ccccc2-c2ccccc2)n1 — efflux ratio (P-glycoprotein (human MDR1); MDR1-MDCKII; 10 µM, 1 h, pH 7.4; baseline: B-A over A-B): 0.82
Cc1cc(Nc2ncnc3ccc(NC4=NC(C)(CO)CO4)cc23)ccc1Oc1ccn2ncnc2c1 (stereo not shown) — AUC(0-inf) (geometric mean) (Cytochrome P450 3A4 (CYP3A4, Homo sapiens, UniProt P08684); human, plasma; tucatinib, day 6, together with: itraconazole): 0.801 µg·h/mL
C[C@]12C[C@H](O)[C@H]3[C@@H](CCC4=CC(=O)CC[C@@]43C)[C@@H]1CC[C@@H]2C(=O)CO — 18-hydroxylation coupling efficiency (CYP11B1 (Homo sapiens, UniProt P15538, V320A); substrate; 100 µM, phospholipid vesicles): 1.7 ± 0.3%
NCc1cc2c(cc1F)C(=O)N(C1CCC(=O)NC1=O)C2 (stereo not shown) — concentration (MAOB (Homo sapiens, UniProt P27338); substrate, LC-MS/MS; recombinant enzyme; 10 µM, 4 h, pH 7.4): 8.5 µM
COc1cccc(-c2cccc(Nc3nccc(NC(C)C)n3)c2)c1 — Papp (A-B) (P-glycoprotein (human MDR1); MDR1-MDCKII; 10 µM, 1 h, pH 7.4): 3.69 ± 0.49 nm/s
CCc1cc(/C(C)=N/OCc2ccc(C3CCCCC3)c(C(F)(F)F)c2)ccc1CN1CC(C(=O)O)C1 — CYP2C9-mediated clearance (Cytochrome P450 2C9 (CYP2C9, Homo sapiens, UniProt P11712); population PK; human, CYP2C9*2/*2, plasma): 1.85 L/h
c1cncc(-c2cccc(Nc3nccc(NC4CCCCC4)n3)c2)c1 — Papp (B-A) (P-glycoprotein (human MDR1); MDR1-MDCKII; 10 µM, 1 h, pH 7.4): 106 ± 40.4 nm/s
N[C@H](CNC(=O)c1cc(Br)c(-c2ccccc2F)s1)C(=O)O — apparent permeability (P-glycoprotein (human MDR1); MDCK canine MDR1 knock-out, human MDR1 transfected; 3 µM, pH 7.4): < 100 nm/s
c1ccc(-c2cccc(Nc3nccc(NC4CCCCC4)n3)c2)cc1 — Papp (A-B) (P-glycoprotein (human MDR1); MDR1-MDCKII; 10 µM, 1 h, pH 7.4): 0.04 ± 0.01 nm/s
Cc1oc2ccccc2c1Cc1cc(I)c(OCC(=O)O)c(I)c1 — activation rate acceleration (KCNH2 (Homo sapiens, UniProt Q12809); potassium current, whole-cell patch clamp; HEK293 expressing hERG1; concentration not given; baseline: control): ~4 fold
C[C@]12CC[C@@H]3c4ccc(OS(=O)(=O)O)cc4CC[C@H]3[C@@H]1CCC2=O — uptake velocity (SLC22A11 (Homo sapiens, UniProt Q9NSA0); HEK293 control cells): 0.9 ± 0.1 pmol/min/mg protein
O=C(O)[C@H](O)[C@@H](O)[C@H](O)[C@H](O)CO — log2 fold change (binding, MIDAS equilibrium dialysis LC-MS; A2AR-BRIL thermostabilized; concentration not given; baseline: no-protein control): -0.105
O=C(c1ccc(C(=O)N2CCC(N3CCCC3)CC2)c(Nc2ccccc2)c1)N1CCC(N2CCCC2)CC1 — FRAP recovery half-time (Lethal(3)malignant brain tumor-like protein 3, MBT domains (Homo sapiens, UniProt Q96JM7); FRAP; human cells; 0.01 µM): 7 s
CCC(=O)NS(=O)(=O)c1ccc(-c2c(-c3ccccc3)noc2C)cc1 — activation (NR1I2; reporter gene, agonist, Gal4 hybrid reporter; HEK293T transiently transfected; 50 µM, 16 h, 0.1% DMSO; baseline: vehicle): 0.82 fold
COc1cccc2c1C(=O)c1c(O)c3c(c(O)c1C2=O)C[C@@](O)(C(=O)CO)C[C@@H]3O[C@H]1C[C@H](N)[C@H](O)[C@H](C)O1 — inhibition (SLCO1B3 (Homo sapiens, UniProt Q9NPD5, M233I/S112A); uptake, inhibitor, radiolabelled substrate uptake; cells expressing SLCO1B3; 100 µM, 2 min, together with: 1 µM [3H]estradiol glucuronide): 40 to 50%
COC(=O)c1cccc(-c2cccc(Nc3nccc(NC4CCCCC4)n3)c2)c1 — efflux ratio (P-glycoprotein (human MDR1); MDR1-MDCKII; 10 µM, 1 h, pH 7.4; baseline: B-A over A-B): 5.23
O=C(O)COc1cccc(-c2nc(Nc3ccc4[nH]ncc4c3)c3ccccc3n2)c1 — IC50 (UGT1A6 (Homo sapiens, UniProt P19224); enzyme activity, inhibitor; recombinant microsomes; together with: diclofenac): 94.7 µM
[11CH3]Oc1cccc(CCc2cc(O)c(=O)[nH]n2)c1 — increase in brain uptake (Abcb1a (Mus musculus, UniProt P21447); CD-1 mice, brain; 30 min, together with: cyclosporine; baseline: without cyclosporine): no effect
O=C(O)C[C@H](Nc1ncnc2c1ncn2[C@@H]1O[C@H](COP(=O)(O)O)[C@@H](O)[C@H]1O)C(=O)O — log2 fold change (binding, MIDAS equilibrium dialysis LC-MS; A2AR-BRIL thermostabilized; concentration not given; baseline: no-protein control): -0.263
CC(C)c1nc(N(C)S(C)(=O)=O)nc(-c2ccc(F)cc2)c1/C=C/[C@@H](O)C[C@@H](O)CC(=O)O — Vmax (SLCO1B3 S112A; uptake, substrate; HEK293-A stably expressing SLCO1B3; 2 min): 627 ± 323 pmol/mg protein/min
CC[C@H](C)CCCCC(=O)N[C@@H](CCN)C(=O)N[C@H](C(=O)N[C@@H](CCN)C(=O)N[C@H]1CCNC(=O)[C@H]([C@@H](C)O)NC(=O)[C@H](CCN)NC(=O)[C@H](CCN)NC(=O)[C@H](CC(C)C)NC(=O)[C@@H](Cc2ccccc2)NC(=O)[C@H](CCN)NC1=O)[C@@H](C)O — fu (plasma proteins; equilibrium dialysis; human, long-term intermittent hemodialysis, plasma; intravenous, 0.75 mg/kg, 4 h, 37 °C): 0.054
CC[C@H]1[C@@H](O)[C@@H]2[C@H](CC[C@]3(C)[C@@H]([C@H](C)CCNC(=O)NS(=O)(=O)c4ccc(C(C)(C)C)cc4)CC[C@@H]23)[C@@]2(C)CC[C@@H](O)C[C@@H]12 — half-life (ABCB1 (Homo sapiens, UniProt P08183); human, plasma; dose not given, geometric mean, together with: quinidine): 11.1 h
CCCCC/C=C\C\C=C/C=C/C=C/[C@@H](SC[C@H](NC(=O)CC[C@H](N)C(=O)O)C(=O)NCC(=O)O)[C@@H](O)CCCC(=O)O — vesicle uptake ratio (ABCC4 (Homo sapiens, UniProt O15439); substrate, membrane vesicle uptake; 0.1 µM, 10 min; baseline: ATP over AMP): 25 ± 1.3
CCc1ccccc1-c1cccc2[nH]c(C(=O)NC[C@@H](N)C(=O)O)cc12 — apparent permeability (P-glycoprotein (human MDR1); MDCK canine MDR1 knock-out, human MDR1 transfected; 3 µM, pH 7.4): < 100 nm/s
COc1cccc(-c2cccc(Nc3nccc(NC4CCCCC4)n3)c2)c1 — efflux ratio (P-glycoprotein (human MDR1); MDR1-MDCKII; 10 µM, 1 h, pH 7.4; baseline: B-A over A-B): 5.96
CC(C)n1c(/C=C/C(O)CC(O)CC(=O)O)c(-c2ccc(F)cc2)c2ccccc21 (stereo not shown) — Vmax (SLCO1B3 (Homo sapiens, UniProt Q9NPD5, M233I); uptake, substrate; HEK293-A stably expressing SLCO1B3; 2 min): 722 ± 306 pmol/mg protein/min
C[C@H](O)c1cnc(NS(=O)(=O)c2ccc(Cl)c(Cl)c2)nc1 — fraction metabolized (17-beta-hydroxysteroid dehydrogenase 13 (Mus musculus, UniProt Q8VCR2); substrate; mouse, wild type vs knockout): < 0.5

A few entries again:
c1ccc(-c2cccc(Nc3nccc(NC4CCCCC4)n3)c2)nc1 — efflux ratio (P-glycoprotein (human MDR1); MDR1-MDCKII; 10 µM, 1 h, pH 7.4; baseline: B-A over A-B): 1.18
CC(C)CCCCC(=O)N[C@@H](CCN)C(=O)N[C@H](C(=O)N[C@@H](CCN)C(=O)N[C@H]1CCNC(=O)[C@H]([C@@H](C)O)NC(=O)[C@H](CCN)NC(=O)[C@H](CCN)NC(=O)[C@H](CC(C)C)NC(=O)[C@@H](Cc2ccccc2)NC(=O)[C@H](CCN)NC1=O)[C@@H](C)O — fu (plasma proteins; equilibrium dialysis; human, mild renal insufficiency, plasma; intravenous, 0.75 mg/kg, 4 h, 37 °C): 10.9%
CC(C)Nc1ccnc(Nc2ccccc2-c2ccccc2)n1 — efflux ratio (P-glycoprotein (human MDR1); MDR1-MDCKII; 10 µM, 1 h, pH 7.4; baseline: B-A over A-B): 0.82
Cc1cc(Nc2ncnc3ccc(NC4=NC(C)(CO)CO4)cc23)ccc1Oc1ccn2ncnc2c1 (stereo not shown) — AUC(0-inf) (geometric mean) (Cytochrome P450 3A4 (CYP3A4, Homo sapiens, UniProt P08684); human, plasma; tucatinib, day 6, together with: itraconazole): 0.801 µg·h/mL
